Assay results pooled from the literature.
Protocols differ between the studies behind these lines. Numbers after ± are the reported error.

Cc1cc(C(=O)NC(C)(C)COc2cccc3c2C(N)=NS(=O)(=O)N3)cc(C)n1  dose-normalised AUC(0-last) (Sprague-Dawley rat, female, plasma; oral, 100 mg/kg): 0.66 ng·h/mL/mg/kg
CNCc1ccc(-c2[nH]c3cc(F)cc4c3c2CCNC4=O)cc1  incidence of pulmonary embolism (human patients; oral, 40 mg once daily, grade 500 or higher): 0%
COc1ccc2c(c1)CN(C(=O)CCN1CCC(Cc3ccccc3)CC1)CC[S@@+]2[O-]  systolic blood pressure (telemetry; conscious male beagle dogs; intravenous, 4 mg/kg, 2 h): 128 ± 7 mmHg
C[C@@H](Oc1ccc(S(C)(=O)=O)cc1C(=O)N1C[C@@H]2C[C@]2(c2cc(C(F)(F)F)on2)C1)C(F)(F)F  urinary excretion (human, urine; oral, 25 mg; reference: dose): 8.7%
COc1cc2c3c(n(CCCN4CCOCC4)c(=O)c2cc1OC)-c1cc2c(cc1C3=O)OCO2  Vz (beagle dog, male, plasma; intravenous infusion, 10 mg/m^2, 1 h infusion, vehicle 1): 225 ± 18 L/m²
O=C(O)CCC(=O)O.[2H]C([2H])([2H])Oc1cc(C)c2[nH]ccc2c1CN1CC[C@@H](C2CC2)C[C@H]1c1ccc(C(=O)O)cc1  TEAE proteinuria (healthy Chinese subjects; 100 mg, single ascending dose): 0%
NC(=O)N1c2ccccc2C=Cc2ccccc21  AUC(0-12h) (healthy human subjects, plasma; oral, dose not given, day 20, twice daily, alone): 80100 ng·h/mL
C[C@H]1CN(C(=O)CC#N)[C@]12CCN(c1ncnc3[nH]ccc13)C2  subjects with Fatigue (healthy human; oral, 12 mg single): 0%
CCCn1cc(C)c2c(=O)[nH]c(-c3cc(S(=O)(=O)N4CCN(CC)CC4)ccc3OCC)nc21  serious adverse events (human): 0%
COc1ccc(C#N)cc1-c1c[nH]c2ncc(-c3cncc(C(=O)N(C)C)c3)cc12  reactivity half-life (HPLC; acetonitrile/water/DMSO; 50 µM, 37 °C, DIPEA 20 eq, added: N-α-acetyl-lysine): > 24 h
Cc1ccc([C@@H]2O[C@H](CO)[C@@H](O)[C@H](O)[C@H]2O)cc1Cc1ccc(-c2ccc(F)cc2)s1  trough concentration (human, maintenance hemodialysis patients; oral, 100 mg once daily, steady state, mean): 151 µg/L
CN(CCCNC(=O)c1cccc(C(=O)O)c1)CCCNC(=O)c1cc(NC(=O)c2cc(NC(=O)c3cc(NC(=O)c4cc(NC(=O)[C@H](N)CCNC(=O)c5cc(NC(=O)c6cc(NC(=O)c7nc(NC(=O)c8nccn8C)cn7C)cn6C)cn5C)cn4C)cn3C)cn2C)cn1C  critical aggregation concentration (dynamic light scattering; 0.1% DMSO in PBS; 25 °C): 4 µM
CCCCOc1ccc([C@H]2CC[C@H](CCC)CC2)c(F)c1F  median concentration (human mother-newborn pairs, cord serum; female fetuses): 6.56 ng/mL
C[C@@H](Nc1cc(F)cc(F)c1)c1cc(C(=O)N(C)C)cc2c(=O)cc(N3CCOCC3)oc12  share of patients with dose interruption (patients with advanced solid tumours; oral, 240 mg twice daily, monotherapy dose-finding, 2:5 schedule): 25%
Cc1c(-c2ccc(N3CCc4cccc(C(=O)Nc5nc6ccccc6s5)c4C3)nc2C(=O)O)cnn1CC12CC3(C)CC(C)(C1)CC(OCCNCC[C@H](O)CO)(C3)C2  mean arterial pressure change (beagle dog, male, anaesthetised; intravenous infusion, 0.01 mg/kg/min, 5 min; reference: baseline): -3 mmHg
O=C(O)CCCOc1ccc([18F])cc1-c1cc(-c2ccccc2C(F)(F)F)n(-c2ccccc2)n1  radioactivity uptake (gamma counting; male ddY mice, kidney; intravenous, 2.1 MBq, 30 min): 2.77 ± 0.05 SUV
CCCCC[C@H](O)CC[C@@H]1[C@H]2Cc3cccc(OCC(=O)O)c3C[C@H]2C[C@H]1O  geometric mean half-life (LC-MS/MS; Japanese PAH patients aged ≥sample A years, plasma; inhaled, 54 µg): 0.79 h
CCC(C)n1ncn(-c2ccc(N3CCN(c4ccc(OCC5COC(Cn6cncn6)(c6ccc(Cl)cc6Cl)O5)cc4)CC3)cc2)c1=O (centres unmarked)  adverse event incidence (measured: respiratory thoracic mediastinal disorders; healthy human participants; oral, 200 mg, compound alone cohort): 7%
NC1(C(=O)N[C@@H](CCO)c2ccc(Cl)cc2)CCN(c2nc[nH]c3nccc2-3)CC1  incidence of white blood cell decreased (metastatic CRPC patients; 480 mg b.i.d., any grade, treatment-related, added: enzalutamide 160 mg daily): 0%
CC[C@H](C)[C@H](NC(=O)[C@H](CO)NC(=O)[C@H](CCCNC(=N)N)NC(C)=O)C(=O)N[C@H]1CSSC[C@@H](C(=O)N[C@H](C(N)=O)[C@@H](C)O)NC(=O)[C@H](CCCNC(=N)N)NC(=O)[C@H](Cc2c[nH]cn2)NC(=O)[C@H](C)NC(=O)CNC(=O)[C@H](Cc2c[nH]c3ccccc23)NC(=O)[C@H](CC(=O)O)NC(=O)[C@H](CCC(N)=O)NC(=O)[C@H](Cc2ccc(O)cc2)NC(=O)[C@H](C(C)C)NC1=O  retention factor (RP-HPLC, C18; 28% acetonitrile isocratic; pH 7.4): 0.477 ± 0.02
O=c1c2ccccc2oc2ccccc12  solubility (tricaprin-tricaprylin mixture; 75 °C, tricaprin fraction 0.17): 0.0899 mole fraction
CN(CC#N)C(=O)C[C@H](Nc1nc2ccccc2[nH]1)c1cccc(C(F)(F)F)c1  apparent volume of distribution (human; intravenous infusion, 6 mg/kg, 1 mg/mL formulation): 97.4 ± 21.6 L
N#Cc1ccc2c(c1)[C@H]1CCCN(C(=O)c3ccc4[nH]cnc4c3)[C@H]1C2  androstenedione level (human, female; 240 mg, day 7): 9 nmol/L
O=C(N[C@H](Cc1c[nH]c2ccccc12)C(=O)Nc1ccncc1)c1ccc(-c2cc(C(F)(F)F)ccc2F)cc1F  concentration (Swiss Webster mouse, female, heart; oral, 50 mg/kg, 2 h, 20% Kolliphor vehicle): 23.7 µM
O=C(c1cccnc1-c1ccncc1)N1CCC(O)(Cc2ccccc2)CC1  Vz/F (healthy Japanese adults, plasma; oral, 300 mg twice daily, day 21): 641 L
COc1ncc(-c2nc3c(n2C(C)C)[C@H](c2ccc(Cl)cc2)N(c2cc(Cl)cn(C)c2=O)C3=O)c(OC)n1  Cmax (LC-MS/MS, noncompartmental; human, plasma; oral, 120 mg, C1D8, high-dose, geometric mean): 857 ng/mL
Nc1cc(C(Cl)=C(Cl)Cl)c(S(N)(=O)=O)cc1S(N)(=O)=O  inhibition (THP-1; pyroptotic LDH release; 2 µM, 40 min, added: LPS then nigericin): 19%
O=C([O-])CCCCCCCNC(=O)c1ccccc1O.[Na+]  AUC(0-24h) (healthy postmenopausal women; 300 mg, oral contraceptive alone, geometric mean): 1480 ng·h/mL
CCc1c(-c2ccccc2)c(-c2ccccc2)nn1-c1ccccc1-c1cccc(OCC(=O)O)c1  Tlag (Sprague-Dawley rat; oral, dose not given): 0 h
CCO[C@H]1CCN(Cc2c(OC)cc(C)c3[nH]ccc23)[C@H](c2ccc(C(=O)O)cc2)C1  total Cmax (human mild hepatic impairment, plasma; oral, 200 mg single dose, mean): 3750 ng/mL
CN1C(=O)[C@@H](NC(=O)c2nnc(Cc3ccccc3)[nH]2)COc2cccnc21  Cmax (human, plasma; oral, 200 mg once daily, day 1, geometric mean): 3130 ng/mL
O=C(Nc1nc2cccc(-c3ccc(CN4CCS(=O)(=O)CC4)cc3)n2n1)C1CC1  treatment-emergent adverse events (measured: investigations; human rheumatoid arthritis patients; oral, 300 mg once daily, 4 weeks, regardless of relatedness): 0%
COc1cc(N2CCC3(CCN(C)CC3)CC2)ccc1Nc1ncc(Cl)c(Nc2ccccc2P(C)(C)=O)n1  Ka (population PK model; human; oral, base structural model): 1.06 h⁻¹
CC[C@H](C)[C@H](NC(=O)[C@H](Cc1ccccc1)NC(=O)[C@H](CCC(=O)O)NC(=O)[C@H](CCCNC(=N)N)NC(=O)[C@H](C)NC(=O)[C@H](C)NC(=O)[C@H](CCC(N)=O)NC(=O)[C@H](CCC(=O)O)NC(=O)[C@H](CCC(=O)O)NC(=O)[C@H](CC(C)C)NC(=O)[C@H](Cc1ccc(O)cc1)NC(=O)[C@H](CO)NC(=O)[C@H](CO)NC(=O)[C@@H](NC(=O)[C@H](CC(=O)O)NC(=O)[C@H](CO)NC(=O)[C@@H](NC(=O)[C@H](Cc1ccccc1)NC(=O)[C@@H](NC(=O)CNC(=O)[C@H](CCC(=O)O)NC(=O)[C@H](C)NC(=O)CCc1c[nH]cn1)[C@@H](C)O)[C@@H](C)O)C(C)C)C(=O)N[C@@H](C)C(=O)N[C@@H](Cc1c[nH]c2ccccc12)C(=O)N[C@@H](CC(C)C)C(=O)N[C@H](C(=O)N[C@@H](CCCNC(=N)N)C(=O)NCC(=O)N[C@@H](CCCNC(=N)N)C(=O)N[C@@H](CCCCNC(=O)COCCOCCNC(=O)COCCOCCNC(=O)CC[C@H](NC(=O)CCCCCCCCCCCCCCCCC(=O)O)C(=O)O)C(=O)O)C(C)C  dose-normalised AUC (UPLC-MS; rat, plasma; subcutaneous, 20 nmol/kg): 110 kg·h/L
O=C1CN(c2nc(=O)c3cc(C(F)(F)F)cc([N+](=O)[O-])c3s2)CCN1C1CCCC1  fraction unbound (equilibrium dialysis; CD-1 mouse plasma; 1 µM, 18 h, pH 7.4): 0.03
NC(=O)N1c2ccccc2C=Cc2ccccc21  adverse events incidence (measured: nervous system disorders (SOC); human male; oral, dose not given, CTCAE on-treatment AEs): 7%
C=CCN1CC(=O)N2[C@@H](Cc3ccc(O)cc3F)C(=O)N(Cc3cccc(N4CC(N5CCN(CC)CC5)C4)n3)C[C@@H]2N1C(=O)NCc1ccccc1  treatment-related decreased appetite (advanced solid tumour patients; oral, 30 mg twice daily, any grade, dose-escalation): 0%
CNC(=O)c1cccc(-c2ccc([C@@H](O)[C@H]3O[C@H](CO)[C@@H](O)[C@H](O)[C@@H]3O)c(C)c2)c1  Vss (male Sprague-Dawley rat, plasma; intravenous, 3 mg/kg, group mean): 0.741 L/kg
Cc1ccc([C@@H]2O[C@H](CO)[C@@H](O)[C@H](O)[C@H]2O)cc1Cc1ccc(-c2ccc(F)cc2)s1  urinary chloride excretion change (Japanese type 2 diabetes patients; 100 mg, day 4, 24 h urine collection; reference: baseline): 40 mEq
CC1(C)S[C@@H]2[C@H](NC(=O)[C@H](N)c3ccccc3)C(=O)N2[C@H]1C(=O)OCOC(=O)[C@@H]1N2C(=O)C[C@H]2S(=O)(=O)C1(C)C  inhibition (THP-1; pyroptotic LDH release; 2 µM, 40 min, added: LPS then nigericin): 9.16%
CCc1cc(C(=O)NC)c2nccc(N3CCc4c(cc(Cn5ccnc5)cc4-c4cn(C)nc4C(F)(F)F)C3=O)c2c1  t1/2 (Sprague Dawley rat, male, plasma; oral, 100 mg/kg twice daily, 7 days): 1.3 h
